Measured values gathered from unrelated publications.
Lines come from different studies, so protocols differ. ± marks the error that the study gave.
SIRT2: NAD-dependent protein deacetylase sirtuin-2 (SIRT2, Homo sapiens, UniProt Q8IXJ6)
Sequence of UniProt Q8IXJ6 (whole entry, looked up): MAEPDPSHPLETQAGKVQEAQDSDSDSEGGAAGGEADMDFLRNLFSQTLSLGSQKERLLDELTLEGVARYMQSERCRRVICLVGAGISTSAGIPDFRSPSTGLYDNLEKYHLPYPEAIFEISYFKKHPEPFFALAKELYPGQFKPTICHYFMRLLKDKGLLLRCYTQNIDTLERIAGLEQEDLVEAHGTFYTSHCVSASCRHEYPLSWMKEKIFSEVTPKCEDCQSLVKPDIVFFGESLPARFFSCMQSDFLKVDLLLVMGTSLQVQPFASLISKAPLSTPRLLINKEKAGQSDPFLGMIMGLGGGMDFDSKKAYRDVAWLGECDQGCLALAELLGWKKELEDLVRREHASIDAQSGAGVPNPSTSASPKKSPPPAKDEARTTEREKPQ
Chymotrypsinogen A: Chymotrypsinogen A (Bos taurus, UniProt P00766)
Sensor histidine kinase AirS: Sensor histidine kinase AirS (Staphylococcus aureus, UniProt Q2FX96)
GBA2: Beta-glucosidase (GBA2, Homo sapiens, UniProt Q9HCG7)
Sequence of UniProt Q9HCG7 (whole entry, looked up): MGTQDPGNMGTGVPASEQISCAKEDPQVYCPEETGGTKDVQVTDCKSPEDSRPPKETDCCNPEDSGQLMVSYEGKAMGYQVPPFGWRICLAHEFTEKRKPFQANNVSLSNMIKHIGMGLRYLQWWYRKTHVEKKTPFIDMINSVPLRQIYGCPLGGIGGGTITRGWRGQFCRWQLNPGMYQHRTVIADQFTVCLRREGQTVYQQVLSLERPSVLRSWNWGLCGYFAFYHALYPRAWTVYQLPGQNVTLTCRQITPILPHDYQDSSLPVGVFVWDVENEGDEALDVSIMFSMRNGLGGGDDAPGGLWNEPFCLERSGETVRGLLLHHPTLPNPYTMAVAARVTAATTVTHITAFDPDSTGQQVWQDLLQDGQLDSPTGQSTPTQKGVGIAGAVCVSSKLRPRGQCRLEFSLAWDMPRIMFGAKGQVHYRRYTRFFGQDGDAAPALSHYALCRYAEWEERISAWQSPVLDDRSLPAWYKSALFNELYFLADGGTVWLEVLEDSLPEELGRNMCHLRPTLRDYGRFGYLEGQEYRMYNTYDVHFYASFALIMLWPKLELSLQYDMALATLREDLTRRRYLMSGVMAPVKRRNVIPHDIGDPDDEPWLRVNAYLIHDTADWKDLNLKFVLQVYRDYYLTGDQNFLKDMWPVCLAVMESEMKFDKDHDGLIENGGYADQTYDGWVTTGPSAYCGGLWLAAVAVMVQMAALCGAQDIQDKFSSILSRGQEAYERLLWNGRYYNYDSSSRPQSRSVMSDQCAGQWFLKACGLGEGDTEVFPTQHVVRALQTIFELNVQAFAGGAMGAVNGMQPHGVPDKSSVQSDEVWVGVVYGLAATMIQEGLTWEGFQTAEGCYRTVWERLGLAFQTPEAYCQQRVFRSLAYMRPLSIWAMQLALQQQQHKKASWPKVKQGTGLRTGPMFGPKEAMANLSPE
PPARA ligand-binding domain: Peroxisome proliferator-activated receptor alpha, ligand-binding domain (PPARA, Homo sapiens, UniProt Q07869)
Sequence of UniProt Q07869 (whole entry, looked up): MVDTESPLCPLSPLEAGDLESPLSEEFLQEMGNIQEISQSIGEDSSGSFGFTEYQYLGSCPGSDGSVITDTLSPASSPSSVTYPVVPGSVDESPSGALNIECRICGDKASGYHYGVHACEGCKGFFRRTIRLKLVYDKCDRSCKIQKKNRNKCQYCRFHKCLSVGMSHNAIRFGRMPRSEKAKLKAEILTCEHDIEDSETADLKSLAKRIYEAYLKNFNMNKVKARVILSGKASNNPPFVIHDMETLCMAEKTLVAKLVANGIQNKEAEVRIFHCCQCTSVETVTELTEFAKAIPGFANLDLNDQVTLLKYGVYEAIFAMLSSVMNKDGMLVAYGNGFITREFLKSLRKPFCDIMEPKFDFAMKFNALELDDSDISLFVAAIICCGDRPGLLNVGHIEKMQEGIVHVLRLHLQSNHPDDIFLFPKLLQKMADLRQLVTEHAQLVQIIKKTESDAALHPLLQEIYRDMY
HDAC2: Histone deacetylase 2 (HDAC2, Homo sapiens, UniProt Q92769)
Sequence of UniProt Q92769 (whole entry, looked up): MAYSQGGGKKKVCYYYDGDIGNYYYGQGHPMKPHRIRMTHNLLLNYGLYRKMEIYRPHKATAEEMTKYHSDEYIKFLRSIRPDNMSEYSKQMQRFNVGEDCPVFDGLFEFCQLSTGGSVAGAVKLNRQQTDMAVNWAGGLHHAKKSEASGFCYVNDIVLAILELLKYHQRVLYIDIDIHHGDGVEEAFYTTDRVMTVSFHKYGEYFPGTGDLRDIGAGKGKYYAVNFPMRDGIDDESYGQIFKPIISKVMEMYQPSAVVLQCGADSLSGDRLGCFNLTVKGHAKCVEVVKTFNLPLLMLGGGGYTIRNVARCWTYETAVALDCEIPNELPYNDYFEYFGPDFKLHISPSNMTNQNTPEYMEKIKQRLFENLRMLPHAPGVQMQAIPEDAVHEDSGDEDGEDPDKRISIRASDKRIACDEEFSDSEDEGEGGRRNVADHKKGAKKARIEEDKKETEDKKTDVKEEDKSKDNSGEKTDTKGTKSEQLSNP
CTSB: Cathepsin B (CTSB, Homo sapiens, UniProt P07858)
Sequence of UniProt Q8TBX8 (whole entry, looked up): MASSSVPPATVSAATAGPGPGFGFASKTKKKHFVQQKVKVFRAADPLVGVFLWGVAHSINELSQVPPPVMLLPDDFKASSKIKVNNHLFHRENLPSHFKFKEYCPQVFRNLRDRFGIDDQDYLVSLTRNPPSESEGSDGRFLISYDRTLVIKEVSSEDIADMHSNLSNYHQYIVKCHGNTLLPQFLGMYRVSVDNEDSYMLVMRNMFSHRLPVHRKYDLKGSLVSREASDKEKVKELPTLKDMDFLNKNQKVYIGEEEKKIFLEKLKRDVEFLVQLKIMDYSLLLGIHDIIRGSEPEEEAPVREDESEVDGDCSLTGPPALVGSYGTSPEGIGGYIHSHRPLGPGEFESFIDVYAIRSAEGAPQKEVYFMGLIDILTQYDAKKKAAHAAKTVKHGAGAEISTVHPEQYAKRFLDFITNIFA
Sequence of UniProt P05067 (whole entry, looked up): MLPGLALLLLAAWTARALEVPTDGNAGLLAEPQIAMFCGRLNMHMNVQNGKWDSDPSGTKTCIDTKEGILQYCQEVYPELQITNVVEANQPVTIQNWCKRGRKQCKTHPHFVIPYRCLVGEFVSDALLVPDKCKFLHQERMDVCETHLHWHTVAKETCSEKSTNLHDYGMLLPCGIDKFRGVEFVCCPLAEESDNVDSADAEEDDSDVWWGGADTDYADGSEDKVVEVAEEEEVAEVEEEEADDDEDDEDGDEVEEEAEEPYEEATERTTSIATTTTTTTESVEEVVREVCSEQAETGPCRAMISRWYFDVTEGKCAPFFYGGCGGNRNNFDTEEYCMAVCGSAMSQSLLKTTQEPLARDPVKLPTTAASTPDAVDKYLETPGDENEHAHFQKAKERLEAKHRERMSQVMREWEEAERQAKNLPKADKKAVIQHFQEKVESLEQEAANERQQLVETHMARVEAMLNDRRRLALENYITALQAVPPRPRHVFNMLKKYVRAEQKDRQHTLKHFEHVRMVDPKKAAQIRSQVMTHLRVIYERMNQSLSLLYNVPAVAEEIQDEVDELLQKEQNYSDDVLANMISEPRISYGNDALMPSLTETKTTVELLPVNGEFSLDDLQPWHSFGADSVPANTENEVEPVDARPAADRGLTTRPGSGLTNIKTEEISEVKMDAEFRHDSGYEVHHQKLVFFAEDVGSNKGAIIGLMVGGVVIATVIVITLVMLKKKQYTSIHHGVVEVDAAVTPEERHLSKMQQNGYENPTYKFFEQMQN
Sequence of UniProt O14757 (whole entry, looked up): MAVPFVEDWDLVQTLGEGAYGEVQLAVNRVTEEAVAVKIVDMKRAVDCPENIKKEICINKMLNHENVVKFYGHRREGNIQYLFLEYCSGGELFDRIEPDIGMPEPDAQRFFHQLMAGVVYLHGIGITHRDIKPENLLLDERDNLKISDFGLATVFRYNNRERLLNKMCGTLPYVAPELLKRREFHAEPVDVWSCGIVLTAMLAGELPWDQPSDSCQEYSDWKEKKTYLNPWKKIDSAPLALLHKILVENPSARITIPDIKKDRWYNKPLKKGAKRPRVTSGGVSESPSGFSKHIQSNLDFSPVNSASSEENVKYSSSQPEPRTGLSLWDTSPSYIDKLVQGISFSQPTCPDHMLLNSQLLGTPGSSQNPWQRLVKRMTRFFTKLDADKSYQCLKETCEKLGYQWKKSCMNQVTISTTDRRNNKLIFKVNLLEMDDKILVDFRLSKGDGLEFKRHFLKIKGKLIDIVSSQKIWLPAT
Sequence of UniProt P42229 (whole entry, looked up): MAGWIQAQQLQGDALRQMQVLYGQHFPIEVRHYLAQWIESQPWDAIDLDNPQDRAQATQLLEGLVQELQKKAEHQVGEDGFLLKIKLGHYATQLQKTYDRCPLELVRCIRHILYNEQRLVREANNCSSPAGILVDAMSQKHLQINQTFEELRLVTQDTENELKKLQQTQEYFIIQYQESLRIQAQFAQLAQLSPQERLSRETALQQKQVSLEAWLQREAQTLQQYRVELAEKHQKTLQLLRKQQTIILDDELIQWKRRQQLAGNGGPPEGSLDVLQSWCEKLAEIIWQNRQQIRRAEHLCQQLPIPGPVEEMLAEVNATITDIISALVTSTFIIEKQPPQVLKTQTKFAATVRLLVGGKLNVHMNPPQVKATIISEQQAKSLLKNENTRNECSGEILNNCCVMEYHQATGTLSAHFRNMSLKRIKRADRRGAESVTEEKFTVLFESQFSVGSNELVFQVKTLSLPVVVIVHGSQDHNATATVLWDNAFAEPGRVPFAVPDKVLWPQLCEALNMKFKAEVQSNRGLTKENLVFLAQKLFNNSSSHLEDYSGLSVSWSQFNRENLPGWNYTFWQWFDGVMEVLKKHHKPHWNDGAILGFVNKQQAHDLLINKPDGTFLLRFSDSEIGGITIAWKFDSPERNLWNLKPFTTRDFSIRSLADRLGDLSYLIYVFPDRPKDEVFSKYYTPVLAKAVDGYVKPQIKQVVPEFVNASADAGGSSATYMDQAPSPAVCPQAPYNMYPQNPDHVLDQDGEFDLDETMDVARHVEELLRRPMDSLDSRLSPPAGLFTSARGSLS
Sequence of UniProt Q99436 (whole entry, looked up): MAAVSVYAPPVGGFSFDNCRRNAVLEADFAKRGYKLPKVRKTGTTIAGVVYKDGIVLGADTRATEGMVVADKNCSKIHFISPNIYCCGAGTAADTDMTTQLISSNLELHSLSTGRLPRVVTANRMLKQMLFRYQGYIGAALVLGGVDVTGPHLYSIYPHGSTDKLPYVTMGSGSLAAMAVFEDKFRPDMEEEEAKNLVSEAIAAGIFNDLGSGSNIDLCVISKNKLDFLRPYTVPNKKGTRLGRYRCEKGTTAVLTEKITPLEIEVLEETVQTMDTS

C#CCNC(=O)c1ccc(S(=O)(=O)N[C@@H](CCCCNC(C)=S)C(=O)N[C@@H](CCCNC(=N)N)C(=O)N[C@@H](CC2CCCCC2)C(N)=O)cc1  IC50 (SIRT2; enzyme activity, inhibitor, fluorescence): 610 nM
Cc1ccc(S(=O)(=O)N2CC(NC(=O)c3cccc(F)c3)C2=O)cc1 (stereo not drawn)  IC50 (Chymotrypsinogen A; enzyme activity, inhibitor, fluorescence): 124000 nM
COc1ccc2c(c1)N(C1=C(c3ccc(F)cc3)C(=O)NC1=O)CC2  IC50 (Sensor histidine kinase AirS; autophosphorylation, inhibitor, BODIPY-FL-ATPγS competition): > 151000 nM
CCCCCOCCCCCN1C[C@H](O)[C@@H](O)[C@H](O)[C@@H]1CO  IC50 (GBA2; inhibitor, 4MU-β-D-glucopyranoside; HEK293T homogenates overexpressing GBA2): 15 nM
COCCN(C)C(C)C(=O)NC(Cc1ccc(-c2ccccc2)cc1)B(O)O (stereo not drawn)  IC50 (Proteasome subunit beta type-3/PSMB7 (Homo sapiens, UniProt P49720+Q99436); β2c trypsin-like activity, inhibitor; constitutive proteasome, with: Ac-KQL-AMC): > 10000 nM
CC(C)Oc1ccccc1NC(=O)C(C(F)(F)F)C(F)(F)F  IC50 (Chymotrypsinogen A; enzyme activity, inhibitor, fluorescence): 31000 nM
Cc1c(Cc2cccc(OC(C)(C)C(=O)O)c2)c2ccc(C(=O)N[C@@H](C)c3cccc(C(F)(F)F)c3)cc2n1C  IC50 (PPARA ligand-binding domain; reporter gene, luciferase reporter; HEK293T, Gal4-PPARα LBD): 870 nM
O=C(Nc1ccc(F)cc1)Nc1ccc(C2=NNC(c3ccc(NC(=O)Nc4ccc(Cl)cc4)cc3)C2)cc1 (stereo not drawn)  IC50 (AGER (Homo sapiens, UniProt Q15109)): > 100000 nM
COc1cc(/C=C/C(=O)C2=C(/C=C/c3ccc(O)c(OC)c3)NC(=S)NC2[c-]2cccc2)ccc1O.[Fe+2].c1cc[cH-]c1 (racemic)  IC50 (APP (Homo sapiens, UniProt P05067); amyloid aggregation, inhibitor, fluorescence; pH 6.9): 5500 nM
OC[C@@H]1[C@@H](O)[C@H](O)[C@@H](O)CN1CCCCCOCc1ccc(-c2cc(C(F)(F)F)cc(C(F)(F)F)c2)cc1  IC50 (GBA2; inhibitor, 4MU-β-D-glucopyranoside; HEK293T homogenates overexpressing GBA2): 15 nM
Cc1c(Cc2ccc(OC(C)C(=O)O)cc2)c2ccc(C(=O)N[C@@H](C)c3cccc(C(C)C)c3)cc2n1C (stereo partly drawn)  IC50 (PPARA ligand-binding domain; reporter gene, luciferase reporter; HEK293T, Gal4-PPARα LBD): 1930 nM
O=C1CC(c2ccccc2)N1S(=O)(=O)c1ccc(Cl)cc1 (stereo not drawn)  IC50 (Chymotrypsinogen A; enzyme activity, inhibitor, fluorescence): 3000 nM
Cc1c(COc2cc(OCc3cccc(C#N)c3)c(CNC(C)(CO)CO)cc2Cl)cccc1-c1cccc(OCCCCCCC(=O)NO)c1  IC50 (HDAC2; enzyme activity, inhibitor): 53.2 nM
CCOC(=O)c1ccc(/N=N/c2ccc(N(C)CCCN)cc2)cc1  IC50 (IAPP (Homo sapiens, UniProt P10997); ThT displacement, ThT fluorescence; pH 7.4, preformed target-ThT complex, with: 5 µM ThT): 400 nM
CC(C)(O)CC#Cc1ccc2[nH]c3c(c2c1)-c1nc(N)ncc1CCC3  IC50 (PIP4K2C (Homo sapiens, UniProt Q8TBX8); target engagement in cells, BRET): 38 nM
Cc1nn(-c2cccc(N)c2)c(=O)c2cnc(Nc3ccc(N4CCNCC4)cc3)nc12  IC50 (Cyclin-dependent kinase 9, with cyclin T1 (CDK9, Homo sapiens, UniProt P50750); kinase activity, inhibitor, SelectScreen kinase profiling): 2200 nM
Cc1nn(-c2ccccc2)nc1CNC(=O)C(C(F)(F)F)C(F)(F)F  IC50 (Chymotrypsinogen A; enzyme activity, inhibitor, fluorescence): > 100000 nM
Cc1cc(-c2ccc(S(=O)(=O)C3CC(C(=O)NC4(C#N)CC4)N(C(=O)C4(C(F)(F)F)CC4)C3)c(C(F)(F)F)c2)ccn1 (stereo not drawn)  IC50 (CTSB; enzyme activity, inhibitor): > 10000 nM
COc1cccc(-c2ccc(COCCCCCN3C[C@H](O)[C@@H](O)[C@H](O)[C@H]3CO)cc2)c1  IC50 (GBA2; inhibitor, 4MU-β-D-glucopyranoside; HEK293T homogenates overexpressing GBA2): 20 nM
Cc1cccc(C2CC(=O)N2S(=O)(=O)c2cccc(Cl)c2)c1 (stereo not drawn)  IC50 (Chymotrypsinogen A; enzyme activity, inhibitor, fluorescence): 370 nM
O=C(CCc1ccco1)N1C(=O)C2(NC(c3ccc(F)cc3)C3(C(=O)Nc4ccccc43)N2Cc2ccc(F)cc2)c2ccccc21 (stereo not drawn)  IC50 (PIK3CG (Homo sapiens, UniProt P48736); enzyme activity, inhibitor, ADP detection): 58.4 nM
OC[C@@H]1[C@@H](O)[C@H](O)[C@@H](O)CN1CCCCCOCc1ccc(-c2ccccc2)c(F)c1  IC50 (GBA2; inhibitor, 4MU-β-D-glucopyranoside; HEK293T homogenates overexpressing GBA2): 0.08 nM
Cc1c(Cc2cc(F)cc(OC(C)(C)C(=O)O)c2)c2ccc(C(=O)N[C@@H](C)c3cc(F)cc(C(C)(C)C)c3)cc2n1CC(C)C  IC50 (PPARA ligand-binding domain; reporter gene, luciferase reporter; HEK293T, Gal4-PPARα LBD): > 100000 nM
O[C@H]1[C@H](O)[C@@H](O)c2[nH]cnc2[C@@H]1O  IC50 (GBA2; HEK293 lysate overexpressing enzyme; pH 5.8, with: 4-MU-β-D-glucopyranoside): > 50000 nM
COc1ccc(CCc2cc(OC)c(O)c(OC)c2)cc1OC  IC50 (PNLIP (Sus scrofa, UniProt P00591); enzyme activity, inhibitor): 173000 nM
CCCCCCCCCCCCNC(=S)NCCCC[C@H](NC(=O)OCc1ccccc1)C(=O)N[C@@H](Cc1c[nH]c2ccccc12)C(=O)N[C@@H](CC(C)C)C(N)=O  IC50 (SIRT2; enzyme activity, inhibitor): 510 nM
O=C(CCCCc1ccc(OP(=O)(O)O)c(OP(=O)(O)O)c1)N1CCCCC1  IC50 (Signal transducer and activator of transcription 5A, SH2 (Homo sapiens, UniProt P42229); ligand displacement, FP): 42000 nM
O=C1Nc2ccccc2Nc2cc(Nc3ccc(Cl)cc3)ccc21  IC50 (CHEK1 (Homo sapiens, UniProt O14757); enzyme activity, inhibitor): > 10000 nM
N#Cc1ccc(-c2ccc(COCCCCCN3C[C@H](O)[C@@H](O)[C@H](O)[C@H]3CO)cc2)cc1  IC50 (GBA2; inhibitor, 4MU-β-D-glucopyranoside; HEK293T homogenates overexpressing GBA2): 3 nM
Cc1c(Cc2ccc(OC(C)C(=O)O)cc2)c2ccc(C(=O)N[C@@H](C)c3ccc(C4CC4)cc3)cc2n1C (stereo partly drawn)  IC50 (PPARA ligand-binding domain; reporter gene, luciferase reporter; HEK293T, Gal4-PPARα LBD): 19800 nM
CCCCOCCCCCN1C[C@H](O)[C@@H](O)[C@H](O)[C@H]1CO  IC50 (GBA2; inhibitor, 4MU-β-D-glucopyranoside; HEK293T homogenates overexpressing GBA2): 60 nM
C[C@](C(=O)NC1CCOCC1)(c1cncnc1)N(C(=O)[C@H](F)Cl)c1ccc(OC(F)(F)Cl)cc1  IC50 (Replicase polyprotein 1ab, main protease (Human coronavirus OC43, UniProt P0C6X6); inhibitor): 10 nM
Cc1cc(C)nc(SCC(=O)Nc2ncc(Cc3cccc(OCc4cn(Cc5ccc(C#N)cc5)nn4)c3)s2)n1  IC50 (SIRT2; enzyme activity, inhibitor, fluorescence): 151 nM
O=C1CC(c2ccc(Br)cc2)N1S(=O)(=O)c1cccc(Cl)c1 (stereo not drawn)  IC50 (Chymotrypsinogen A; enzyme activity, inhibitor, fluorescence): 220 nM
Cc1c(Cc2cccc(OC(C)(C)C(=O)O)c2)c2ccc(C(=O)NCc3ccc(C(C)(C)C)cc3)cc2n1CC1CCC1  IC50 (PPARA ligand-binding domain; reporter gene, luciferase reporter; HEK293T, Gal4-PPARα LBD): 250 nM
Cc1cnc(Nc2ccc3c(c2)CCN(C(=O)/C=C/CC(C)C)C3)nc1-c1cnn(C(C)C)c1  IC50 (JAK2 (Homo sapiens, UniProt O60674); enzyme activity, inhibitor, ADP detection): 13.9 nM
O=C(O)c1cc(C(=O)CC(=O)c2cc(C(=O)O)c(O)c3ccccc23)c2ccccc2c1O  IC50 (TREX1 (Homo sapiens, UniProt Q9NSU2); exonuclease activity, inhibitor; with: dsDNA substrate): 5140 ± 386 nM
O=C1Nc2c(Br)cccc2/C1=C1/Nc2ccccc2C1=NO  IC50 (RET (Homo sapiens, UniProt P07949)): > 10000 nM
CC(C)Cn1cc(Cc2cccc(OC(C)(C)C(=O)O)c2)c2ccc(C(=O)N[C@@H](C)c3cccc(C(C)(C)C)c3)c(F)c21  IC50 (PPARA ligand-binding domain; reporter gene, luciferase reporter; HEK293T, Gal4-PPARα LBD): > 100000 nM
NCCOc1ccccc1NC(=O)C(C(F)(F)F)C(F)(F)F  IC50 (Chymotrypsinogen A; enzyme activity, inhibitor, fluorescence): 273000 nM
Cc1nc2ccc(Br)cc2c(=O)n1N  IC50 (CTSB; enzyme activity, inhibitor): 94500 nM
O=C(NCc1ccc(F)cc1)c1ccc(NC(=O)C(C(F)(F)F)C(F)(F)F)cc1  IC50 (Chymotrypsinogen A; enzyme activity, inhibitor, fluorescence): > 100000 nM
CCn1c(C)c(Cc2cccc(OC(C)(C)C(=O)O)c2)c2ccc(C(=O)N[C@@H](C)c3cccc(C(C)(C)C)c3)cc21  IC50 (PPARA ligand-binding domain; reporter gene, luciferase reporter; HEK293T, Gal4-PPARα LBD): 50600 nM
CC1Cc2ccccc2N1C1=C(c2ccc(O)cc2)C(=O)NC1=O (stereo not drawn)  IC50 (Sensor histidine kinase AirS; autophosphorylation, inhibitor, BODIPY-FL-ATPγS competition): 221000 nM
Cc1cccc(-c2ccc(COCCCCCN3C[C@H](O)[C@@H](O)[C@H](O)[C@H]3CO)cc2)c1  IC50 (GBA2; inhibitor, 4MU-β-D-glucopyranoside; HEK293T homogenates overexpressing GBA2): 2 nM
COc1c(Cl)cccc1Nc1c(-c2ccncc2C#C[C@@]2(C)CCCN2C(=O)/C=C/CN(C)C)[nH]c2c1C(=O)NCC2  IC50 (CIT (Homo sapiens, UniProt O14578)): 51 nM
OC[C@@H]1[C@@H](O)[C@H](O)[C@@H](O)CN1CCCCCOCc1ccsc1  IC50 (GBA2; inhibitor, 4MU-β-D-glucopyranoside; HEK293T homogenates overexpressing GBA2): 4 nM
CC[C@H](C)[C@@H]1NC(=O)[C@H](Cc2ccccc2C(F)(F)F)NC(=O)CCSCc2cccc(n2)CSCCCNC(=O)[C@H](CCCCCC(=O)NO)NC1=O  IC50 (HDAC2; enzyme activity, inhibitor, fluorescence): 16 nM
